Measurements of several laboratories.
Protocols differ between the studies behind these lines. “And” joins repeats or separate records; there may be more than shown. ± gives the spread as reported.

Under “EEG Alpha1-power Pz-O2”, `OC(CCN1CCCCC1)(c1ccccc1)C1CC2C=CC1C2` (centres unmarked) is recorded as 15.1 µV² (resting-state EEG; healthy elderly humans; oral, 2 mg, eyes closed, LS mean).
With `CCN1CCN(Cc2ccc(Nc3ncc(F)c(-c4cc(F)c5nc6n(c5c4)[C@H](C)CCC6)n3)nc2)CC1` the ORR was 4.2% (RECIST v1.1; advanced solid tumour patients; Phase Ia monotherapy).
Under “decrease in serum uric acid”, `O=C(O)/C=C/c1nccc2c3ccccc3n(Cc3ccc(C4CC4)c4ccccc34)c12` is recorded as 69.3% (mouse, acute hyperuricaemia model; oral, 2 mg/kg).
For `NC(=O)c1cnc2[nH]ccc2c1N[C@@H]1[C@@H]2CC3C[C@H]1C[C@@](O)(C3)C2`, “change from baseline” read 0.35% (flow cytometry, refers to: CD4+ effector memory T cells; Japanese healthy subjects, peripheral blood; oral, 10 mg twice daily, day 7).
`CC(C)(C)C1CCc2c(sc(NC(=O)c3ccco3)c2C(=O)O)C1` (centres unmarked) — result for “pain response latency”: “no effect” (hot plate test; ICR mouse; intragastric, 20 mg/kg, 3 h; reference: vehicle).
`OCC(O)CO` gave an FGF21 level of 564 pg/mL and 324 pg/mL and 349 pg/mL and 429 pg/mL and 235 pg/mL (ELISA; Mus musculus male wild type, serum; drinking water, 5% w/v, 2 days).
`COc1cccc2c(N3CCC(CCP(=O)(O)O)CC3)ncnc12` has a cGAMP concentration of under 2 ng/mL (mouse, EMT6 tumour, serum; dose not given, below quantification limit).
`C[C@H]1O[C@@H](O[C@H]2CC[C@@]3(C)[C@@H](CC[C@]4(C)[C@@H]3C=C[C@]35OC[C@@]6(CCC(C)(C)C[C@H]63)[C@@H](O)C[C@]54C)[C@]2(C)CO)[C@H](O)[C@@H](O[C@@H]2O[C@H](CO)[C@@H](O)[C@H](O)[C@H]2O)[C@H]1O` — result for “Oil Red O area”: 9.38% and 13% and 14.1% and 13.4% (chronic-plus-binge ethanol-fed mice, liver; dose not given, medium dose; reference: area).
The tumour regression of `COc1ccc(F)cc1C(=O)NCc1ccc(-c2nn([C@@H](C)C(F)(F)F)c(N)c2C(N)=O)cc1` is reported as -29% (mouse TMD8 BTK C481S xenograft; oral, 10 mg/kg twice daily).
The progressive disease of `C[C@H](NC(=O)c1c(C(F)F)nn(C)c1Oc1cccc(C(F)(F)F)c1)c1ccc(C(=O)O)cc1` is reported as 37.5% (irRECIST; human, advanced tumours; 125 mg; best overall response).
`CN(C)C(=O)Oc1cccc([N+](C)(C)C)c1` gave a twitch response of 25.8% and 19% and 25.5% and 13.4% (rat cisatracurium-induced neuromuscular block; 0.004 mg/kg).
The latency change of `C[C@H](Oc1ccc(Br)cc1-c1ccon1)C(=O)O` is reported as -1.79% (muscle velocity recovery cycles; human, tibialis anterior muscle; 400 mg once daily, multiple doses, 30 Hz train for 30 s; reference: placebo).
Under “delta delta Ct”, `COc1ccc(-c2cncc(N[C@@H](C)c3cccc(NC(=O)c4cncc(C)c4)c3)n2)cc1OC` is recorded as -0.639 (refers to: rno-miR-22-3p; rat SU5416/hypoxia model, lung; dose not given, unit not given; reference: SU5416/hypoxia vehicle).
`O=C(O)CNC(=O)Cc1ccccc1` has a sarcomere length of 1.72 µm (ventricular cardiomyocytes, C57BL/6 mouse; dose not given, 0.064 s).
`O=C(OC(C(F)(F)F)C(F)(F)F)N1CCN(Cc2cccc(Oc3ccccc3)c2)CC1`: “volume of distribution” 5.41 mL/cm3 (PET blocking study; rhesus monkey, brain occipital cortex; intravenous, 0.03 mg/kg, compound pretreatment, with: [18F]T-401 tracer).
`c1ccc(-c2n[nH]cc2-c2ccnc3ccccc23)nc1` — result for “log2 fold change”: 0.929 (kinase binding, competitor, MIB/MS competition, refers to: RIO2; Candida albicans cell lysate; 100 nM; reference: DMSO).
Under “extracellular enkephalin concentration”, `O=C(O)CNC(=O)C(CS)Cc1ccccc1` (centres unmarked) is recorded as 1050 pM and 861 pM and 667 pM and 983 pM and 100 pM and 1830 pM and 490 pM (inhibitor, LC-MS/MS, refers to: Met- or Leu-enkephalin; mouse striatal brain slices; 10 µM, 20 min, with: 50 mM KCl).
`Cc1n[nH]c2ccc(-c3cc(OC[C@@H](N)Cc4ccccc4)cnc3-c3ccoc3)cc12`: “log2 fold change” -0.317 (kinase binding, competitor, MIB/MS competition, refers to: CEK1; Candida albicans cell lysate; 1 µM; reference: DMSO).
`C[C@@H]1COCCN1c1cc([C@]2(O)C[C@H]3CC[C@@H](C2)O3)c2cnn(-c3cc[nH]n3)c2n1` — result for “tumour growth inhibition”: 49.6 ± 3.3% (mice, Granta-519 xenograft; 30 mg/kg once daily for 2 days, day 14).
With `CC[C@@H]1[C@H](F)C(=O)N[C@@H]1COc1nccc2cc(C(N)=O)c(OC)cc12` the inhibition was 6.6% (ATP-site probe binding, ActivX profiling, refers to: TAO1, TAO3; THP-1 cell lysate; 0.01 mM, Lys2 site).
`CN(C(=O)n1cnc(-c2ccc[n+]([O-])c2)c1)C1CCCCC1` gave an AUC(0-t) of 158 ng·h/mL (refers to: PEA; human, plasma; 0.25 mg single dose).
`C1=C/COCc2cc(ccc2OCCN2CCCC2)Nc2nccc(n2)-c2cccc(c2)COC/1` gave a CD71/Ter119 cells of 12% and 13.9% and 12.3% and 12.8% and 10% and 13.8% (BALB/c mice rhEPO-induced polycythemia, bone marrow; 120 mg/kg).
`O=C(COc1ccc(Cl)cc1)NC12CC(c3nnc([C@H]4C[C@@H](OC(F)(F)F)C4)o3)(C1)C2`: “CHAC1 mRNA change” -70.2% (healthy human, PBMC; 45 mg once daily, day 15, 24 h post-dose, median, with: sodium arsenite ex vivo; reference: baseline).
`CC(C)NCC(O)c1ccc(O)c(O)c1` (centres unmarked) gave a sarcomere length of 1.72 µm (ventricular cardiomyocytes, C57BL/6 mouse; dose not given, 0.312 s).
`C[C@]12CC[C@@H]3c4ccc(O)cc4C[C@@H](CCCCCCCCC[S+]([O-])CCCC(F)(F)C(F)(F)F)[C@H]3[C@@H]1CC[C@@H]2O` (some centres unmarked) gave a tumour volume of 23.7 mm3 and 15.4 mm3 and 17.7 mm3 and 25.3 mm3 and 15.6 mm3 and 38.8 mm3 and 20.9 mm3 (female nude mouse LCC2 xenograft; 2.0 mg/kg, day 1, tamoxifen-resistant).
`CCc1c(C)nc(-c2ccc(Cl)s2)nc1Nc1ccc(CC(=O)O)cc1`: “liver to body weight ratio” “decreased” (C57BL/6J mouse, MCD diet MASH model; intraperitoneal, 0.3 mg/kg daily, MCD diet 6 weeks, dosed final two weeks; reference: untreated).
